Results from different studies.
Lines come from different studies, so protocols differ. ± marks the error that the study gave.
ZAP70 SH2 domains: Tyrosine-protein kinase ZAP-70, SH2 domains (ZAP70, Homo sapiens, UniProt P43403)
Chain of UniProt P43403 (whole entry, looked up): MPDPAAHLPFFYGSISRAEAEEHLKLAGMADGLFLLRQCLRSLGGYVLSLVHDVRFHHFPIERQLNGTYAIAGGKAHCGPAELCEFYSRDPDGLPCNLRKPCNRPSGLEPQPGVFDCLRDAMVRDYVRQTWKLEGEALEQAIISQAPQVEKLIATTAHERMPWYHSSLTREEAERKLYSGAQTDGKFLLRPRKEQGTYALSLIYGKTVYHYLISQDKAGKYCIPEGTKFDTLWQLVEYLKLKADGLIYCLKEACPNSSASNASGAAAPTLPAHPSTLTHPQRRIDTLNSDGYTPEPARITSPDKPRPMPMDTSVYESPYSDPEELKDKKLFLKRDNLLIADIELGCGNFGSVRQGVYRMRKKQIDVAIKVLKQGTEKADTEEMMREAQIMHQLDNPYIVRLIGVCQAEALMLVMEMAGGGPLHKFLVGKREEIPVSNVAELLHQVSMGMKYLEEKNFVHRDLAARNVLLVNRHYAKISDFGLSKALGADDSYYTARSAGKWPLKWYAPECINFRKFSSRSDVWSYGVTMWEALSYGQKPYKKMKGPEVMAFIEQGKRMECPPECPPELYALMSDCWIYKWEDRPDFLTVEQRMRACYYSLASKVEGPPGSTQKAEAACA
TXK SH2 domain: Tyrosine-protein kinase TXK, SH2 domain (TXK, Homo sapiens, UniProt P42681)
Chain of UniProt P42681 (whole entry, looked up): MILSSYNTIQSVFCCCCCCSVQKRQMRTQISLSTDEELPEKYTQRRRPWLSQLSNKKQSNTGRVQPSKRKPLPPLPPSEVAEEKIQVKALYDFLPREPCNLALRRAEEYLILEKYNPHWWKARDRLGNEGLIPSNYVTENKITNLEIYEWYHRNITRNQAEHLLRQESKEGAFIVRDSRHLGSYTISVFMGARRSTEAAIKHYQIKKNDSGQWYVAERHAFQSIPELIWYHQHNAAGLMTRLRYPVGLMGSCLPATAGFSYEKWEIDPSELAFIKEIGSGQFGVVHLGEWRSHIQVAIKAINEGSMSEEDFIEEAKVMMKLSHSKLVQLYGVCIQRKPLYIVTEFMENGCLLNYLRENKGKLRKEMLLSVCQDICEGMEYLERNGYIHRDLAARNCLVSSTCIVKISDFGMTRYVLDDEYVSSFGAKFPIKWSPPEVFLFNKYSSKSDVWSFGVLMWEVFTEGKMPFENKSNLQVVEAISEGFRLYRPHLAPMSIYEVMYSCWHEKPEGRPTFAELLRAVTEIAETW
TetR-family regulator NalD: TetR-family regulator NalD (Pseudomonas aeruginosa, UniProt Q9HY46)
Chain of UniProt P00512 (whole entry, unmodified, looked up): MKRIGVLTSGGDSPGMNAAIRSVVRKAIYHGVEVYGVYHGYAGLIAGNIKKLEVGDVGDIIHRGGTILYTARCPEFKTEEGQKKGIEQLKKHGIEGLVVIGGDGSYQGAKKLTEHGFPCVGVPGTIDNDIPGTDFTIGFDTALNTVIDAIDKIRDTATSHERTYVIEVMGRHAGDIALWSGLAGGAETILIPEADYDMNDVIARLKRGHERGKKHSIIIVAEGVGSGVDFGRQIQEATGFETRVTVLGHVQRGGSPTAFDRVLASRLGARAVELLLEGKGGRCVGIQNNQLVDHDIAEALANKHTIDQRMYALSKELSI
Chain of UniProt P46108 (whole entry, looked up): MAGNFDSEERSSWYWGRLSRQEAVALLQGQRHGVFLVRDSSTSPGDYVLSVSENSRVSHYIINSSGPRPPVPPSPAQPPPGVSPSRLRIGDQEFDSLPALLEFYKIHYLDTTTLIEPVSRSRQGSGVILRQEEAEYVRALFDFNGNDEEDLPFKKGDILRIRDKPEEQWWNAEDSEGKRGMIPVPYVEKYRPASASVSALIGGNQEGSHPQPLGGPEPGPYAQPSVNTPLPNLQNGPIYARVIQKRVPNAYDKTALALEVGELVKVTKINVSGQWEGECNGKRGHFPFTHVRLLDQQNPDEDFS
Chain of UniProt P04905 (whole entry, looked up): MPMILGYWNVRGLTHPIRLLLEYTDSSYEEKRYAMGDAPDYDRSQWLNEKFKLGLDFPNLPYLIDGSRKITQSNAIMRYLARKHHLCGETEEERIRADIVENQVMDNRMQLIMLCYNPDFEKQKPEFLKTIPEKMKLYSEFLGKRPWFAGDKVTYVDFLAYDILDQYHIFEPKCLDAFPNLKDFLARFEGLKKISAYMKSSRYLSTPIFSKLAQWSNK
Chain of UniProt P08510 (whole entry, unmodified, looked up): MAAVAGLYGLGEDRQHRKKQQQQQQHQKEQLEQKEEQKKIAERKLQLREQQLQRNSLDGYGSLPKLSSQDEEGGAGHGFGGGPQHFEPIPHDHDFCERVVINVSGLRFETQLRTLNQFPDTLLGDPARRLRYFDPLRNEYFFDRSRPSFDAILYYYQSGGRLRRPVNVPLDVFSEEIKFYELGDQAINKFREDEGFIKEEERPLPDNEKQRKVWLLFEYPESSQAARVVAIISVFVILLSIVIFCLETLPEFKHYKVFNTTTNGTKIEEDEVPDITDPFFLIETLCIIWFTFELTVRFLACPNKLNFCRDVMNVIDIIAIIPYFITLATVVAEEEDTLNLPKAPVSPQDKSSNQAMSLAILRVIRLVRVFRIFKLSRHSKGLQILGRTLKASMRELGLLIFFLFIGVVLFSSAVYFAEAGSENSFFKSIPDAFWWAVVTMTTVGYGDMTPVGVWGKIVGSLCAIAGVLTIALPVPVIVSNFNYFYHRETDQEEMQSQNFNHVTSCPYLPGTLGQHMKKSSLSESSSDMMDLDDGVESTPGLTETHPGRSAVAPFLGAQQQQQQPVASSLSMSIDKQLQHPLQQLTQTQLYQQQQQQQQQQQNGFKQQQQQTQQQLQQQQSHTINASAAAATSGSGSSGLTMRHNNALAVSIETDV
Chain of UniProt Q92PC8 (whole entry, unmodified, looked up): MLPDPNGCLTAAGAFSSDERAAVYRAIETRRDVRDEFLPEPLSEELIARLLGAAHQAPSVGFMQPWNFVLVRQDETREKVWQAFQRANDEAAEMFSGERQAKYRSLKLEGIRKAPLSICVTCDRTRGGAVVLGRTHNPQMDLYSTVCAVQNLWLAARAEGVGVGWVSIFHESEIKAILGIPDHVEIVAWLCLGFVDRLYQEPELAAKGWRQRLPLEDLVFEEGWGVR
Chain of UniProt Q88FY2 (whole entry, unmodified, looked up): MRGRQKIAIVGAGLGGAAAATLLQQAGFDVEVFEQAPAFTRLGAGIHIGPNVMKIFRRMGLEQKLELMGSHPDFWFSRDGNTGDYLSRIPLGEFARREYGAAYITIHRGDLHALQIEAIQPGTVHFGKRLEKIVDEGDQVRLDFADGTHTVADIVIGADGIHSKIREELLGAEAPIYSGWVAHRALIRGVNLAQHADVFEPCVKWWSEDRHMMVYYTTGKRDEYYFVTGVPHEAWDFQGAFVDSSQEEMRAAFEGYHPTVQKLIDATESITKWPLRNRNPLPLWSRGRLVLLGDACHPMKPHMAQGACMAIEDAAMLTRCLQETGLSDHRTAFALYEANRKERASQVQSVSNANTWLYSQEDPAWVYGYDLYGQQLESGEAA
Chain of UniProt O43639 (whole entry, looked up): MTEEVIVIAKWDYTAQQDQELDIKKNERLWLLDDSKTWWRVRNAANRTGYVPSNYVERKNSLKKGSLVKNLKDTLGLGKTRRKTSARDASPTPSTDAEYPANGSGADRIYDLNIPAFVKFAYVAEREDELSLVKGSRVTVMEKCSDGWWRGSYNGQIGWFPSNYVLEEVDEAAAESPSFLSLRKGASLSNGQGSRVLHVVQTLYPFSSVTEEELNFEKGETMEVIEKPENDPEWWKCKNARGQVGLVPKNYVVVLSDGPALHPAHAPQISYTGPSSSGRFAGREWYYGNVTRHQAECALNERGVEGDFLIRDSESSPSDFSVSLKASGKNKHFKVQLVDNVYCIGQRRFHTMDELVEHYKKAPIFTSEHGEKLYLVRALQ
Chain of UniProt P22748 (whole entry, looked up): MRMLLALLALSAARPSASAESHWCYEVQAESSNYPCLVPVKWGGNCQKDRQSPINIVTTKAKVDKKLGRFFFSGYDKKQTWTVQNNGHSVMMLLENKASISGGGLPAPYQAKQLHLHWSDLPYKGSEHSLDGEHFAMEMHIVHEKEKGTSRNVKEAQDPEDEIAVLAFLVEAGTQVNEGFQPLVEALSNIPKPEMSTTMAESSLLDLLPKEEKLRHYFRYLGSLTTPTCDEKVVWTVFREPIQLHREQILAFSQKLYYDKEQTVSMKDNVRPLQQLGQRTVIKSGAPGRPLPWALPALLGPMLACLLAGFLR
Chain of UniProt Q06151 (whole entry, unmodified, looked up): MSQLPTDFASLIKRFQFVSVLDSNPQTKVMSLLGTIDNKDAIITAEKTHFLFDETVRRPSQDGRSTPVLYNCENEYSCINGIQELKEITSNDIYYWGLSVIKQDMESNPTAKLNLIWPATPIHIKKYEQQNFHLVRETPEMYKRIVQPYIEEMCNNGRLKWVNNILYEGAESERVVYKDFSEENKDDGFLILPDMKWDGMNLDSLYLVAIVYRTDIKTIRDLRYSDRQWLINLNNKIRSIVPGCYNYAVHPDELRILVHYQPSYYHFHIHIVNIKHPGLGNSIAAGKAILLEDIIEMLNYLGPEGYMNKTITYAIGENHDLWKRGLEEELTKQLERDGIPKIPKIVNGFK

SMILES	target	assay	test system	conditions	Kd [µM]
CC[C@H](CO)Nc1nc(NCc2ccc(-c3ccccn3)cc2)c2ncn(C(C)C)c2n1	DYRK1B (Homo sapiens, UniProt Q9Y463)	binding, competition affinity chromatography	SH-SY5Y cell extract	–	4.88
CC[C@H](C)[C@@H]1NC(=O)[C@H]([C@@H](C)CC)NC(=O)[C@@H](Cc2ccc(O)cc2)NC(=O)CSC[C@@H](C(N)=O)NC(=O)[C@H](CCCNC(=N)N)NC(=O)[C@H](CCCCN)NC(=O)[C@H](CC(C)C)NC(=O)[C@H](CO)NC(=O)[C@H](CO)NC(=O)[C@H](CC(C)C)NC(=O)[C@H](Cc2ccccc2)NC(=O)[C@H](C(C)C)NC(=O)CNC(=O)[C@H](CC(C)C)NC(=O)[C@@H]2CCCN2C(=O)[C@H]([C@@H](C)O)NC(=O)[C@H](CC(=O)O)NC1=O	VPS35/VPS29 (Homo sapiens, UniProt Q96QK1+Q9UBQ0)	binding, ITC	–	25 °C, heterodimer	0.106 ± 0.004
CC[C@H](C)[C@H](NC(=O)[C@H](Cc1ccc(OP(=O)(O)O)cc1)NC(=O)[C@H](CCC(=O)O)NC(=O)[C@H](Cc1c[nH]cn1)NC(=O)CNC(=O)[C@H](CC(=O)O)NC(=O)[C@H](CO)NC(=O)[C@H](CO)NC(=O)[C@@H](NC(=O)[C@H](CO)NC(=O)[C@H](CCC(=O)O)NC(=O)c1ccc2c(c1)C(=O)OC21c2ccc(N(C)C)cc2Oc2cc(N(C)C)ccc21)C(C)C)C(=O)N[C@@H](Cc1ccc(O)cc1)C(=O)N[C@H](C(=O)N[C@@H](CC(=O)O)C(=O)N1CCC[C@H]1C(=O)N[C@@H](CCSC)C(=O)N[C@@H](CCC(N)=O)C(=O)N[C@@H](CC(=O)O)C(=O)O)C(C)C	ZAP70 SH2 domains	binding	–	–	1.05
C=C(OP(=O)(O)O)C(=O)O	pfkA (Geobacillus stearothermophilus, UniProt P00512, H160A)	–	–	–	1 ± 0.1
CC[C@H](C)[C@H](NC(=O)[C@H](CCC(N)=O)NC(=O)[C@H](CCCNC(=N)N)NC(=O)[C@H](CC(=O)O)NC(=O)[C@H](CCC(=O)O)NC(=O)[C@H](CC(=O)O)NC(=O)[C@H](CO)NC(=O)[C@H](Cc1ccc(O)cc1)NC(=O)[C@H](CCC(=O)O)NC(=O)[C@H](CCCNC(=N)N)NC(=O)[C@H](CC(=O)O)NC(=O)[C@@H]1CCCN1C(=O)[C@H](Cc1ccc(O)cc1)NC(=O)[C@H](CO)NC(=O)[C@@H]1CCCN1C(=O)[C@H](CO)NC(=O)[C@@H](N)CCC(N)=O)C(=O)N[C@@H](CCCCN)C(=O)N[C@@H](CCC(N)=O)C(=O)N[C@@H](CCSC)C(=O)N[C@@H](CC(C)C)C(=O)N[C@@H](Cc1c[nH]cn1)C(=O)N[C@@H](CCC(N)=O)C(=O)N[C@@H](CCC(=O)O)C(=O)N[C@@H](CS)C(=O)N1CCC[C@H]1C(=O)N[C@@H](CCCNC(=N)N)C(=O)N[C@@H](CC(C)C)C(N)=O	chicken IgY	binding, SPR	–	–	0.0041 ± 0.0002
CSCC[C@H](NC(=O)CNC(=O)[C@H](Cc1ccccc1)NC(=O)[C@H](CC(=O)O)NC(=O)CNC(=O)c1ccc2c(c1)C(=O)OC21c2ccc(N(C)C)cc2Oc2cc(N(C)C)ccc21)C(=O)N[C@@H](CO)C(=O)N[C@@H](CCCNC(=N)N)C(=O)N[C@@H](CC(=O)O)C(=O)N[C@H](C(=O)N[C@@H](Cc1ccc(OP(=O)(O)O)cc1)C(=O)N[C@@H](CO)C(=O)N[C@H](C(=O)N[C@@H](CC(=O)O)C(=O)N[C@@H](Cc1ccc(O)cc1)C(=O)N[C@@H](Cc1ccc(O)cc1)C(=O)N[C@@H](CCCNC(=N)N)C(=O)N[C@H](C(=O)N[C@@H](CC(=O)O)C(=O)O)C(C)C)[C@@H](C)O)C(C)C	TXK SH2 domain	binding	–	–	1.32
Cn1c2cccc(=O)c-2nc2ccccc21	TetR-family regulator NalD	surface plasmon resonance	–	25 °C	7.03
CC[C@H](C)[C@H](NC(=O)[C@H](CC(=O)O)NC(=O)[C@H](C)NC(=O)[C@H](Cc1ccc(OP(=O)(O)O)cc1)NC(=O)[C@H](CCCCN)NC(=O)[C@@H](NC(=O)[C@H](CC(=O)O)NC(=O)CNC(=O)[C@H](CCCCN)NC(=O)[C@H](CCSC)NC(=O)[C@H](CC(=O)O)NC(=O)[C@H](CC(C)C)NC(=O)[C@H](CCSC)NC(=O)c1ccc2c(c1)C(=O)OC21c2ccc(N(C)C)cc2Oc2cc(N(C)C)ccc21)C(C)C)C(=O)N[C@@H](CCC(=O)O)C(=O)N[C@@H](CO)C(=O)N[C@@H](CO)C(=O)N[C@@H](CC(N)=O)C(=O)N[C@@H](CC(=O)O)C(=O)O	Crk-like protein, SH2 domain (Homo sapiens, UniProt P46109)	binding	–	–	1.55
Cc1cc2nc3c(=O)[nH]c(=O)nc-3n(C[C@H](O)[C@H](O)[C@H](O)COP(=O)(O)O)c2cc1C	5,6-dimethylbenzimidazole synthase (bluB, Rhizobium meliloti, UniProt Q92PC8, R34Q)	binding	Sinorhizobium meliloti	–	11 ± 3
O=S(=O)(O)c1cccc2cccc(Nc3ccccc3)c12	Gstm1 (Rattus norvegicus, UniProt P04905)	isothermal titration calorimetry	–	–	27
O=C(O)c1ccc(S)nc1	6-hydroxynicotinate 3-monooxygenase (nicC, Pseudomonas putida, UniProt Q88FY2, H47Q)	binding	–	–	2900 ± 100
CSCC[C@H](N)C(=O)N[C@@H](C)C(=O)N[C@@H](C)C(=O)N[C@H](C(=O)N[C@@H](C)C(=O)NCC(=O)N[C@@H](CC(C)C)C(=O)N[C@@H](Cc1ccc(O)cc1)C(=O)NCC(=O)N[C@@H](CC(C)C)C(=O)NCC(=O)N[C@@H](CCC(=O)O)C(=O)N[C@@H](CC(=O)O)C(=O)N[C@@H](CCCNC(=N)N)C(=O)N[C@@H](CCC(N)=O)C(=O)N[C@@H](Cc1c[nH]cn1)C(=O)N[C@@H](CCCNC(=N)N)C(=O)N[C@@H](CCCCN)C(=O)N[C@@H](CCCCN)C(=O)N[C@@H](CCC(N)=O)C(N)=O)C(C)C	Sh, DEL6-46 (Drosophila melanogaster, UniProt P08510)	ion current, blocker, inside-out patch clamp	Xenopus oocytes	range over 10 µM, pH 7.0, 22–24 °C, at 0 mV	7.5
O=C(CO)[C@@H](O)[C@H](O)[C@H](O)COP(=O)(O)O	pfkA (Geobacillus stearothermophilus, UniProt P00512)	–	–	–	30 ± 2
C[N+](C)(C)[C@@H](Cc1c[nH]c(=S)[nH]1)C(=O)[O-]	egtUBC (Streptococcus pneumoniae, UniProt A0A0H2ZQB9, I243P/T274G)	binding	–	–	43.5
NS(=O)(=O)C(F)(F)F	CA4 (Homo sapiens, UniProt P22748)	binding	–	–	0.118
CSCC[C@H](NC(=O)[C@H](Cc1ccc(OP(=O)(O)O)cc1)NC(=O)CNC(=O)CNC(=O)[C@H](CC(=O)O)NC(=O)[C@H](CO)NC(=O)[C@H](CCC(=O)O)NC(=O)CNC(=O)[C@@H](NC(=O)[C@H](CC(C)C)NC(=O)[C@H](CO)NC(=O)c1ccc2c(c1)C(=O)OC21c2ccc(N(C)C)cc2Oc2cc(N(C)C)ccc21)[C@@H](C)O)C(=O)N[C@@H](CC(=O)O)C(=O)N[C@@H](CCSC)C(=O)N[C@@H](CO)C(=O)N[C@@H](CCCCN)C(=O)N[C@@H](CC(=O)O)C(=O)N[C@@H](CCC(=O)O)C(=O)N[C@@H](CC(=O)O)C(=O)O	TXK SH2 domain	binding	–	–	1.03
CO[C@@H]1[C@@H](OC(N)=O)[C@@H](O)[C@H](Oc2ccc3c(O)c(NC(=O)c4ccc(O)c(CC=C(C)C)c4)c(=O)oc3c2C)OC1(C)C	TetR-family regulator NalD	microscale thermophoresis	–	–	36.8
CSCC[C@H](NC(=O)[C@H](CC(C)C)NC(=O)[C@H](C)NC(=O)[C@H](CCCNC(=N)N)NC(=O)[C@H](Cc1ccc(OP(=O)(O)O)cc1)NC(=O)[C@H](Cc1ccccc1)NC(=O)[C@H](CC(N)=O)NC(=O)[C@H](CO)NC(=O)[C@H](CC(=O)O)NC(=O)[C@@H](NC(=O)[C@@H]1CCCN1C(=O)[C@H](CO)NC(=O)[C@@H]1CCCN1C(=O)[C@H](CC(C)C)NC(=O)c1ccc2c(c1)C(=O)OC21c2ccc(N(C)C)cc2Oc2cc(N(C)C)ccc21)[C@@H](C)O)C(=O)N[C@@H](CC(=O)O)C(=O)N[C@@H](CCC(=O)O)C(=O)N[C@@H](CCC(=O)O)C(=O)N[C@@H](CC(=O)O)C(=O)O	ZAP70 SH2 domains	binding	–	–	1.65
CC[C@H](C)[C@H](NC(=O)[C@H](CCCNC(=N)N)NC(=O)CNC(=O)[C@H](Cc1c[nH]c2ccccc12)NC(=O)[C@@H]1CSC[C@@H](NC(=O)[C@H](Cc2ccc(O)cc2)NC(=O)[C@H](Cc2c[nH]c3ccccc23)NC(=O)[C@H](CC(C)C)NC(=O)CNC(=O)[C@H](CCCNC(=N)N)NC(=O)c2ccc3c(c2)C(=O)OC32c3ccc(O)cc3Oc3cc(O)ccc32)C(=O)N[C@@H](CC(C)C)C(=O)N[C@@H](CO)C(=O)N1)C(=O)NCC(=O)N[C@@H](CCCNC(=N)N)C(=O)N[C@@H](CCCNC(=N)N)C(=O)NCC(=O)O	srtA (Staphylococcus aureus, UniProt Q2FV99)	binding, fluorescence polarization	–	pH 7.5	1.26 ± 0.13
CC[C@H](C)[C@H](NC(=O)[C@H](Cc1ccc(OP(=O)(O)O)cc1)NC(=O)[C@H](CCC(=O)O)NC(=O)[C@@H]1CCCN1C(=O)[C@@H](NC(=O)[C@@H]1CCCN1C(=O)[C@H](CC(C)C)NC(=O)[C@H](Cc1ccccc1)NC(=O)[C@@H](NC(=O)[C@H](CC(=O)O)NC(=O)[C@H](CC(=O)O)NC(=O)c1ccc2c(c1)C(=O)OC21c2ccc(N(C)C)cc2Oc2cc(N(C)C)ccc21)[C@@H](C)O)C(C)C)C(=O)N[C@@H](CC(N)=O)C(=O)N[C@@H](CCC(N)=O)C(=O)N[C@@H](CO)C(=O)N[C@H](C(=O)N1CCC[C@H]1C(=O)N[C@@H](CCCCN)C(=O)N[C@@H](CC(=O)O)C(=O)O)C(C)C	Cytoplasmic protein NCK2, SH2 domain (NCK2, Homo sapiens, UniProt O43639)	binding	–	–	1.1
C[N+](C)(C)[C@@H](Cc1c[nH]c(=S)[nH]1)C(=O)[O-]	egtUBC (Streptococcus pneumoniae, UniProt A0A0H2ZQB9)	binding	–	–	0.111
CC(C)C[C@H](NC(=O)[C@@H](NC(=O)[C@H](CO)NC(=O)[C@H](CO)NC(=O)[C@@H](NC(=O)[C@H](CC(=O)O)NC(=O)[C@H](CC(C)C)NC(=O)[C@@H]1CCCN1C(=O)[C@H](CO)NC(=O)c1ccc2c(c1)C(=O)OC21c2ccc(N(C)C)cc2Oc2cc(N(C)C)ccc21)[C@@H](C)O)C(C)C)C(=O)N[C@@H](Cc1ccc(OP(=O)(O)O)cc1)C(=O)N[C@H](C(=O)N[C@@H](C)C(=O)N[C@H](C(=O)N[C@@H](CCC(N)=O)C(=O)N1CCC[C@H]1C(=O)N[C@@H](CC(N)=O)C(=O)N[C@@H](CCC(=O)O)C(=O)N[C@@H](CC(=O)O)C(=O)O)C(C)C)[C@@H](C)O	Adapter molecule crk, SH2 domain (Homo sapiens, UniProt P46108)	binding	–	–	1.59
C[n+]1cn([C@@H]2O[C@H](COP(=O)(O)OP(=O)([O-])OP(=O)(O)OC[C@H]3O[C@@H](n4cnc5c(=O)[nH]c(N)nc54)[C@H](O)[C@@H]3O)[C@@H](O)[C@H]2O)c2nc(N)[nH]c(=O)c21	m7GpppX diphosphatase (DCS1, Saccharomyces cerevisiae, UniProt Q06151, H268N)	binding, first binding event, isothermal titration calorimetry	–	25 °C	0.03
